Assay results collected from several papers.
± marks the error that the study gave.

The tissue uptake of CCCC[C@H](NC(=O)COCCOCCNC(=O)CN1CCN(CC(=O)O)CCN(CC(=O)O)CC1)C(=O)N[C@H]1CC(=O)NCCCC[C@@H](C(N)=O)NC(=O)[C@H](Cc2c[nH]c3ccccc23)NC(=O)[C@H](CCCNC(=N)N)NC(=O)[C@@H](Cc2ccccc2)NC(=O)[C@H](Cc2c[nH]cn2)NC1=O [fluorine-18 labelled] is reported as 0.86 ± 0.26 %ID (C57 mice, B16/F10 melanoma, intestines; intravenous, 0.37 MBq, 1 h).
The tissue uptake of Cc1cc(C)n(CCN(CCN)CCCCCCNC(=O)[C@@H](N)Cc2c[nH]c3ccccc23)n1.[99Tc+].[C-]#[O+].[C-]#[O+].[C-]#[O+] is reported as 22.4 ± 3.23 %IA/g (BALB/c nude mice, A549 xenograft, liver; intravenous, 4 h).
For CCCC[C@H](NC(=O)CNC(=O)CNC(=O)[C@H](CCCCNC(=O)C(C)c1ccc(CC(C)C)cc1)NC(=O)CN1CCN(CC(=O)O)CCN(CC(=O)O)CCN(CC(=O)O)CC1)C(=O)N[C@H]1CC(=O)NCCCC[C@@H](C(N)=O)NC(=O)[C@H](Cc2c[nH]c3ccccc23)NC(=O)[C@H](CCCNC(=N)N)NC(=O)[C@@H](Cc2ccccc2)NC(=O)[C@H](Cc2c[nH]cn2)NC1=O (stereo partly drawn) [lutetium-177 labelled], the tissue uptake was 0.75 ± 0.33 %ID/g (C57 mice, tumour-bearing, bone; 2 h).
O=C(O)CCCOc1ccc([18F])cc1-c1cc(-c2ccccc2C(F)(F)F)n(-c2ccccc2)n1 gave a tissue uptake of 3.34 ± 0.46 %ID/g (mice, small intestine; intravenous, 180 min).
With Cc1cc(C)n(CCN(CCN)CCCCCCNC(=O)[C@@H](N)Cc2c[nH]cn2)n1.[99Tc+].[C-]#[O+].[C-]#[O+].[C-]#[O+] the tissue uptake was 0.27 ± 0.1 %ID/g (BALB/c nude mice MCF7 xenograft, tumor; intravenous, 4 h).
O=C(NCC1OC2CCC=CCCC2O1)c1ccc(COCCOCCOCC[18F])cc1 (stereo not drawn) has a tissue uptake of 2.6 ± 0.1 %ID/g (healthy female BALB/c nude mice, liver; intravenous, 7.4 MBq per mouse, 120 min).
With N#C[C@@H]1CCCN1C(=O)CNC(=O)c1ccnc2ccc(OCCCN3CCN(C(=O)CCc4ccc(O)c(CN5CCN6CC(=O)[O][Al-]([18F])([O]C(=O)C5)[O]c5ccc(CCC(=O)N7CCN(CCCOc8ccc9nccc(C(=O)NCC(=O)N%10CCC[C@H]%10C#N)c9c8)CC7)cc5C6)c4)CC3)cc12 (stereo partly drawn) the tissue uptake was 2.14 ± 1.44 %ID/g (BALB/c nude mice, U-87 MG xenograft, pancreas; 1 h, blocking, with: DOTA-FAPI-04 40 nmol/mouse co-injected).
With COc1ccc(Nc2nc(Nc3ccc(OCCOCCOCC[18F])cc3)ncc2Br)cc1 the tissue uptake was 3.74 ± 0.11 %ID/g (ICR mice, S180 tumour-bearing, liver; intravenous, 370 kBq, 30 min).
N#C[C@@H]1CCCN1C(=O)CNC(=O)c1ccnc2ccc(OCCCN3CCN(C(=O)CCc4ccc5c(c4)CN4CCN(Cc6cc(CCC(=O)O)ccc6O)CC(=O)[O][Al-]([18F])([O]C(=O)C4)[O]5)CC3)cc12 (stereo partly drawn) has a tissue uptake of 0.07 ± 0.02 %ID/g (BALB/c nude mice, U-87 MG xenograft, brain; 2 h).
CCCC[C@H](NC(=O)CNC(=O)CNC(=O)[C@H](CCCCNC(=O)[C@H](CC(N)=O)NC(=O)C(C)c1ccc(CC(C)C)cc1)NC(=O)CN1CCN(CC(=O)O)CCN(CC(=O)O)CCN(CC(=O)O)CC1)C(=O)N[C@H]1CC(=O)NCCCC[C@@H](C(N)=O)NC(=O)[C@H](Cc2c[nH]c3ccccc23)NC(=O)[C@H](CCCNC(=N)N)NC(=O)[C@@H](Cc2ccccc2)NC(=O)[C@H](Cc2c[nH]cn2)NC1=O (stereo partly drawn) [lutetium-177 labelled] has a tissue uptake of 25.5 ± 1.31 %ID/g (C57 mice, tumour-bearing, tumor; 2 h).
With O=C(NCC1OC2CCC=CCCC2O1)c1ccc([18F])nc1 (stereo not drawn) the tissue uptake was 2.5 ± 0.4 %ID/g (healthy female BALB/c nude mice, skin; intravenous, 7.4 MBq per mouse, 2 min).
CCCC[C@H](NC(=O)CCCCCCCNC(=O)CN1CCN(CC(=O)O)CCN(CC(=O)O)CC1)C(=O)N[C@H]1CC(=O)NCCCC[C@@H](C(N)=O)NC(=O)[C@H](Cc2c[nH]c3ccccc23)NC(=O)[C@H](CCCNC(=N)N)NC(=O)[C@@H](Cc2ccccc2)NC(=O)[C@H](Cc2c[nH]cn2)NC1=O [fluorine-18 labelled] gave a tissue uptake of 1.74 ± 0.44 %ID (C57 mice, B16/F10 melanoma, intestines; intravenous, 0.37 MBq, 0.5 h).
The tissue uptake of COc1ccc(Nc2nc(Nc3ccc(OCCOCC[18F])cc3)ncc2Br)cc1 is reported as 0.27 ± 0.03 %ID (ICR mice, S180 tumour, stomach; intravenous, 370 kBq, 120 min).
For N#C[C@@H]1CCCN1C(=O)CNC(=O)c1ccnc2ccc(OCCCN3CCN(C(=O)CCc4ccc5c(c4)CN4CCN6CC(=O)[O][68Ga-]([O]C(=O)C4)([O]5)[O]c4ccc(CCC(=O)N5CCN(CCCOc7ccc8nccc(C(=O)NCC(=O)N9CCC[C@H]9C#N)c8c7)CC5)cc4C6)CC3)cc12, the tissue uptake was 42 ± 12.9 %ID/g (BALB/c nude mice, U-87 MG tumour, gallbladder; 120 min post-injection).
With O=C([O-])CN1CCN(CC(=O)[O-])CCN(CC(=O)NC[C@H]2CC[C@H](C(=O)N[C@H](Cc3cnc4ccccc4c3)C(=O)NCCCC[C@H](NC(=O)N[C@@H](CCC(=O)O)C(=O)O)C(=O)O)CC2)CCN(CC(=O)[O-])CC1.[64Cu+2] the tissue uptake was 147 %ID/g (ex vivo gamma counting; 22Rv1 tumour-bearing mice, kidney; intravenous, 0.74 MBq, 1 h post-injection).

Excerpt of the above:
With O=C(NCC1OC2CCC=CCCC2O1)c1ccc([18F])nc1 (stereo not drawn) the tissue uptake was 2.5 ± 0.4 %ID/g (healthy female BALB/c nude mice, skin; intravenous, 7.4 MBq per mouse, 2 min).
